Measured values gathered from unrelated publications.
Every numbered part comes from another study and shows a few of its results, in no order.
Chain of UniProt P16220 (whole entry, looked up): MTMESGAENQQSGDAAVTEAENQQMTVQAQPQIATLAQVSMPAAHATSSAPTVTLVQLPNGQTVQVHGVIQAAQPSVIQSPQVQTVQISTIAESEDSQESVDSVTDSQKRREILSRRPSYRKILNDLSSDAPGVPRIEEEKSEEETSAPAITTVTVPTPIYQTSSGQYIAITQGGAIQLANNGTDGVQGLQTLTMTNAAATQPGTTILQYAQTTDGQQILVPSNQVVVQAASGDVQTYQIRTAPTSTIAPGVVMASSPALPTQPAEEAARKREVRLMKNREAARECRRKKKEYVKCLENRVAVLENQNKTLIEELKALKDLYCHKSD
Chain of UniProt P14921 (whole entry, looked up): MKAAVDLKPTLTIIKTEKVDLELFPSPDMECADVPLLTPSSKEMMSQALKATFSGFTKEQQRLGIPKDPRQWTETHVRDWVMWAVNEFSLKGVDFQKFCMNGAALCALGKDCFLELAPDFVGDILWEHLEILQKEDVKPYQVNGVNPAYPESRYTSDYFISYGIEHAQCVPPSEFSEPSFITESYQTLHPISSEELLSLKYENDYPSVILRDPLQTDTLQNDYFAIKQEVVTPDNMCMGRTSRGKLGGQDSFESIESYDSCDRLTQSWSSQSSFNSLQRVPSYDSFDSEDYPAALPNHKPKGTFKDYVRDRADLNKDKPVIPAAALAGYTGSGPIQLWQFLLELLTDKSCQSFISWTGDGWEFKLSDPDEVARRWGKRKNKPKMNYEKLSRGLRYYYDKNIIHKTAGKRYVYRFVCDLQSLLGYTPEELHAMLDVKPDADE
Chain of UniProt Q9WVH4 (31-263, looked up): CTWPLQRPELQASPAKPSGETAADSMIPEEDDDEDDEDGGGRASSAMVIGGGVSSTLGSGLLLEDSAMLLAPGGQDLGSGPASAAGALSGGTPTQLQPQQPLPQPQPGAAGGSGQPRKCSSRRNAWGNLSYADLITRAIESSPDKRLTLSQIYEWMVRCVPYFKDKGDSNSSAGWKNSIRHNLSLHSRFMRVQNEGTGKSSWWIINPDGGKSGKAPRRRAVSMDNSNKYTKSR

Set 1
Target: Replicase polyprotein 1ab, nsp13 helicase (rep, Severe acute respiratory syndrome coronavirus 2, UniProt P0DTD1)
Action: inhibitor
Tested at: 20 µM
Quantity: inhibition
Cc1cc([C@@H](C)Nc2ccccc2C(=O)O)c2nc(N3CCOCC3)cc(=O)n2c1: 14.1%
COc1ccc(/C=C/C(=O)O)cc1: 0.21%
Nc1nc(Cl)nc2c1ncn2[C@@H]1O[C@H](CO)[C@@H](O)[C@@H]1F: -1.25%
CN1CCN(c2ccc(Nc3ncc4cc(C#N)c(=O)n(C5CCCC5)c4n3)cc2)CC1: -1.27%
O=c1[nH]cnc2nc[nH]c12: 4.02%
CCN(CCCc1ccccc1)CCCc1ccccc1: -1.28%
O=C1NC(O)CCN1[C@@H]1O[C@H](CO)[C@@H](O)[C@H]1O (stereo partly shown): 3.63%
CN(Cc1cccc(-c2ccccc2)c1)C(=O)Oc1ccc(-c2ccc(C(N)=O)cc2)cc1: 2.28%
S=P(N1CC1)(N1CC1)N1CC1: -5.42%
CCOc1nc2cccc(C(=O)O)c2n1Cc1ccc(-c2ccccc2-c2nnn[nH]2)cc1: 3.17%
COc1cc2c(cc1O)CC[C@@H]1[C@@H]2CC[C@]2(C)[C@@H](O)CC[C@@H]12: 0.97%
Cc1c(Nc2ncccc2C(=O)O)cccc1C(F)(F)F: 6.38%
CC(=O)N1CCC(NC(=O)c2ccc(F)cc2)CC1: 0.1%
CN1CCc2cc3c(cc2C1O)OCO3 (stereo not shown): 3.61%
CC(=O)[C@@]1(O)CC[C@H]2[C@@H]3C=C(Cl)C4=CC(=O)[C@@H]5C[C@@H]5[C@]4(C)[C@H]3CC[C@@]21C: 2.72%
CCOC(=O)C1=C(C)NC(=S)NC1c1cccc(O)c1 (stereo not shown): 8.81%
O=C1c2cccnc2OC[C@@H]2CCCN12: 5.38%
Nc1nc(/C(=C/CC(=O)O)C(=O)N[C@@H]2C(=O)N3C(C(=O)O)=CCS[C@H]23)cs1: 1.51%
O=C(c1c(F)ccc(NS(=O)(=O)N2CC[C@@H](F)C2)c1F)c1c[nH]c2ncc(-c3cnc(C4CC4)nc3)cc12: 5.56%
CO/N=C(\C(=O)N[C@@H]1C(=O)N2C(C(=O)[O-])=C(C[n+]3ccn4ncccc43)CS[C@H]12)c1nsc(N)n1: -0.77%

Set 2
Cell line: HEK-293T/ACE2
Tested at: concentration not given
Time: 16 (unit not given)
Baseline: vehicle
Quantity: viability
C[C@H]1CNCCc2ccc(Cl)cc21: 90.5%
C[C@]12CC[C@H](O)CC1=CC[C@@H]1[C@@H]2CC[C@]2(C)C(c3cccnc3)=CC[C@@H]12: 99.3%
CC=CC(=O)N(CC)c1ccccc1C (mixture of isomers): 101%

Set 3
Target: Ras GTPase-activating protein-binding protein 1, C-terminal RGG region (G3BP1, Homo sapiens, UniProt Q13283)
Chain of UniProt Q13283 (whole entry, looked up): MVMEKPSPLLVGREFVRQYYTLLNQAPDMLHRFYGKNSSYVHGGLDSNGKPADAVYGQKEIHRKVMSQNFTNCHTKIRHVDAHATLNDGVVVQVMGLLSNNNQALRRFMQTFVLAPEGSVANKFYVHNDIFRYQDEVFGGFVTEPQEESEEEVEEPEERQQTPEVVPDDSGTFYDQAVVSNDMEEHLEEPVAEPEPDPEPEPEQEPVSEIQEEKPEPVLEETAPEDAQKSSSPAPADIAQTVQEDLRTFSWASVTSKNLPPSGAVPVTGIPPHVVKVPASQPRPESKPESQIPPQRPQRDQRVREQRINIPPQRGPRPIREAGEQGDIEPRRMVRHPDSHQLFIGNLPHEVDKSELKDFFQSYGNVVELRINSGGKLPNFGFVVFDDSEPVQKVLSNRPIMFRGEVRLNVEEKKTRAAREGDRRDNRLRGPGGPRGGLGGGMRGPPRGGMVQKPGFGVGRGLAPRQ
Method: RNA Bind-n-Seq
Form: RNA
Sample: in vitro
Tested at: 1 µM
Setting: whole 134-nt RNA, ends assumed
Added: 150 mM KCl
Baseline: input library
Direction: higher = stronger binding
Quantity: log2 enrichment
Shared flanks, not repeated: GGGAGUUCUACAGUCCGACGAUC … UGGAAUUCUCGGGUGUCAAGG
UCCUGUGCUACACAUCGUAUGUACCGAAUCAAACCCCCCCAAAUUUUUUUAAACCCAAAAAAGUAUUAUGUUACGCCGUUCGGAUCUGCA: -0.605
GCAGGAAGUAAAAACAAAUGGAAAUGCUUCGGAUAGUGGCAGGGGUGGGGGUUGCUAAGGAAAGGGUGGAAUGGGAGUGGGUAAAGAGUU: 1.77
UUAAGAAUAUUUAGAUAUUUGUAAAAGAAUUUGAAUGAUUUAUUUAAUAUAACGUUUAUUUUAUUAGCUCUAUUCCAAUUGAUUACAACC: -2.09
AUGUUCUUGAAUACUUAGCAAACAUACCAGCAUCCCAAAGUCACCAAGAUAAACCCUCCUACUCCAACAUCACAUGAUCUUCUAAUUCUA: -0.726
UGGGAGGUGGAUUUUGUUUAGUUUUUUAGCUCAUUUCCAGGGGUGGGAAUUUUUUUUUAAUAUGUGUCAUGAAUAAAGUUGUUUUUGAAA: 1.89
GUCCUGUGCUACACAUCGUAUGUACCGAAUCGGGGAAAAAGGGAAAAAGGAAAAAGGGAAAGUAUUAUGUUACGCCGUUCGGAUCUGCAC: -1.2
AGUCCUGUGCUACACAUCGUAUGUACCGAAUCGGGUUUUUGGGAAAAAGGGAAAGGGAAAGUAUUAUGUUACGCCGUUCGGAUCUGCACU: 0.36
UGGGAGGUGGAUUUUGUUUAUUUUUUUAGCUCAUUUCCAGGGGUGGGAAUUAUUUUUUAAUAUGUGUCAUGAAUAAAGUUGUUUUUGAAA: 3.53

Set 4
Target: Replicase polyprotein 1ab, main protease (rep, Severe acute respiratory syndrome coronavirus 2, UniProt P0DTD1)
Read-out: enzyme activity
Action: inhibitor
Tested at: 20 µM
Setting: primary screen
Quantity: inhibition
O=C(Nc1ccc(Cl)c(Cl)c1)Nc1ccc(Cl)c(Cl)c1: 51.6%
c1ccc2sc(SNC3CCCCC3)nc2c1: 70.1%
COc1ccc2[nH]c(S)nc2c1: 97.9%

Set 5
Target: RING finger protein unkempt homolog, zinc fingers 1-6, GST-SBP tag (UNK, Homo sapiens, UniProt Q9C0B0, residues 30-357)
Method: RNA Bind-n-Seq
Form: RNA
Sample: in vitro
Tested at: not given
Setting: RNA with constant flanks, human-mouse chimeric sites, ends assumed
Baseline: input RNA pool
Direction: higher = stronger binding
Quantity: bound/input enrichment
Shared flanks, not repeated: GGGAGUUCUACAGUCCGACGAUC … CAACAGAGGAUUGAGCAUCA
Target sequence (chain): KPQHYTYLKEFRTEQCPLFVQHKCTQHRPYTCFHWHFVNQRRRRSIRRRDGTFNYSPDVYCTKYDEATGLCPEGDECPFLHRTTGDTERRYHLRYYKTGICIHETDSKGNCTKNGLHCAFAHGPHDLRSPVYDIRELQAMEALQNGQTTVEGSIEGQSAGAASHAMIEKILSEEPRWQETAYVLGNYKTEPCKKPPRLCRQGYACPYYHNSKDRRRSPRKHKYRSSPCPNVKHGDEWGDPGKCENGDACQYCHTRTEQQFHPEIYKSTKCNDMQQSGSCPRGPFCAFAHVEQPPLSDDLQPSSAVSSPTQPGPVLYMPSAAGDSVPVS
GAGCGUCUUGCCCGCACUGGGAUCAUCGUGACCACGAGUGAGGCUGUCCUCCUACAGCUGGUAGCUGACAAAGACCACCCGAAGUUCAAGGAAAUUCAGAACCUAAUUAAGGCGAGUGCC: 0.152 ratio
CUCGGCACUGGUACCCUUUACAUCGCUGAGAGCCGCCUGUCCUGGUUAGAUGGUUCGGGAUUAGGAUUCUCACUGGAAUACCCCACCAUUAGUUUACAUGCGGUGUCCAGGGAUCCAAAC: 0.645 ratio
AGCGUUCAGGAAUUCAUGACCUUUACAAGUCAACUGAUUGUGGAACGCUCGGGGAAAGGCAGCAGAGCUUCUGUCAAAGAACAAGAGUAUCUUUGCCACGUCUACGUCCGGAGCGACAGU: 0.0991 ratio
UAAGUCCUGUGCCAGCACUUCGCUCAUUAUAUUUUAAAUUCAAGAAAAAUAGUGUUUGUUUCCUGAUUAUUGUAUCCAAUACUUUGCCUAGUAUGUAACUCACUCUUACUGAUAAUAAAA: 13.3 ratio
CUGAGGAAUACCACUGAGAGACCUUAAAAGAAUCAUUUGAGGGCUCUGUUCGUGCAAGAAUAGUCACCUGACCGGGAACUGGUUCUUCCAAAGGGUUUGGUUUUGUAGACUUUAAUAGUG: 0.818 ratio
GCUCUUGGCAAUGUAAUCAGCGCCUUGGGGGACAAGAGCAAGAGAGCCACCCAUGUCCCUUACAGAGACUCUAAGCUGACAAGACUCCUACAGGAUUCCCUUGGGGGUAACAGCCAAACC: 0.113 ratio
UCAUUUUUCUCUUUUCUUUCUUUCCUUUAGGAAAAGCCUAAAGAUUAGGUUGUAAGAAAAACAGAAGCCAUGUUUCGAAGACCUGUGUUACAGGUACUUCGUCAGUUUGUAAGACAUGAG: 0.187 ratio
GCAGGAUCUUCUAAAUACCAGUGGGACAUUAUGAAAUCCCUUGGCCUCUCUGAUGACGACAUAGUGAAGUUUUCUGAAGCAGAGCACUGGCUUGAUUAUUUCCCACCACUGGCCGUUCAG: 0.187 ratio

Mixed results
Method: protein-binding microarray
Form: hairpin DNA
Sample: in vitro
Tested at: not given
Setting: whole hairpin DNA, median over replicate spots
Baseline: not given
Direction: higher = stronger binding
GAGGCCATGTAGCCAACGCCTCCTGGCGTTGGCTACATGGCCTCACACTC — median fluorescence (FOXO3, forkhead domain (mouse, UniProt Q9WVH4, residues 31-263)): 4360 a.u.
GAGGCCAGCCGGAAGTGGCCTCCTGGCCACTTCCGGCTGGCCTCACACTC (5mC at 28) — median fluorescence (Protein C-ets-1, full length (ETS1, Homo sapiens, UniProt P14921, residues 1-441)): 11300 a.u.
CGGACATCCCCGGGCATGTCTCCTGACATGCCCGGGGATGTCCGACACTC — median fluorescence (Cellular tumor antigen p53, full length (TP53, Homo sapiens, UniProt P04637, residues 1-393)): 12200 a.u.
GAGGCCGGCTGACGTGAGCCTCCTGGCTCACGTCAGCCGGCCTCACACTC — median fluorescence (Cyclic AMP-responsive element-binding protein 1, full length (CREB1, Homo sapiens, UniProt P16220, residues 1-327)): 5260 a.u.

Excerpt of the above (mixed results):
GAGGCCGGCTGACGTGAGCCTCCTGGCTCACGTCAGCCGGCCTCACACTC — median fluorescence (Cyclic AMP-responsive element-binding protein 1, full length (CREB1, Homo sapiens, UniProt P16220, residues 1-327)): 5260 a.u.
CGGACATCCCCGGGCATGTCTCCTGACATGCCCGGGGATGTCCGACACTC — median fluorescence (Cellular tumor antigen p53, full length (TP53, Homo sapiens, UniProt P04637, residues 1-393)): 12200 a.u.
GAGGCCATGTAGCCAACGCCTCCTGGCGTTGGCTACATGGCCTCACACTC — median fluorescence (FOXO3, forkhead domain (mouse, UniProt Q9WVH4, residues 31-263)): 4360 a.u.
GAGGCCAGCCGGAAGTGGCCTCCTGGCCACTTCCGGCTGGCCTCACACTC (5mC at 28) — median fluorescence (Protein C-ets-1, full length (ETS1, Homo sapiens, UniProt P14921, residues 1-441)): 11300 a.u.
